Experimental data pooled from the literature.
Numbered parts are unrelated; each lists some results of a single study.

Set 1
Target: RNA binding protein fox-1 homolog 2, RRM domain, GST-SBP tag (RBFOX2, Homo sapiens, UniProt O43251-10, residues 100-194)
Technique: RNA Bind-n-Seq
Form: RNA
Medium: in vitro
Tested at: 365 nM
Setting: natural RNA segment, single round, ends assumed
Reference: no-protein control
Reading: higher = stronger binding
Endpoint: RBNS enrichment (R)
Residues (chain): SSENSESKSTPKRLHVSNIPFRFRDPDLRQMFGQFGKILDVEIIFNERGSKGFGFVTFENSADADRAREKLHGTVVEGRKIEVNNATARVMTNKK
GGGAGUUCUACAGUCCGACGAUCUUUCCCAACAGAAAAGAACAGCCAUUAGAAGAAGGCUCCCAUUUUCUGAUGUUCCGCCCCACUGUGAAGAGUGUGCUCGUUUUAAAUUCAUGUUGAUUCUUGUAAGCACUUGGAAUUCUCGGGUGCCAA: 0.471
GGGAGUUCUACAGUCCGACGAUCUCCACUCCCCCUGCCGCCCACACUGCAGCAGCCACAUCCAUACACACACGCUCGCACAGUGUUCUGAGGAAGGAACCUUCGCCACAGACUCCUGUACUAUUAACAAUCUGUGGAAUUCUCGGGUGCCAA: 0.663
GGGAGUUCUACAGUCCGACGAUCUCUCUGCUGCUUCUCUGGCUUGUUUCCUACAGCGGGGGCCUGUGGGAUUGAGUCUUGAGGAAUUCUCUCAGAUGAGAGCCAUAGGAGAUGGCCUCAUCUCCUGACUGUUUUGGAAUUCUCGGGUGCCAA: 0.698
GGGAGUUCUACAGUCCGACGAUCAGAGCCCGGCCACAAAUUCUGAGGAAAAACAAAAACUAAAGGAUGAACGAACGAACGAACGAAUGAAAACACACACAAAAUGUUUCAAGUUCCCCUAAAAUAUGACCCACUGGAAUUCUCGGGUGCCAA: 1.07
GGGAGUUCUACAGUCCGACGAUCGUGUUCUCUUUUGUUAUUUUACUUAGGGUAUAUGGAUAUUUUGCAAUAAUUUUAAUGAUUCUUAAGCUAUUUGAAGGAAAGAAUAUGGAUUUCUCAUGUCUUGAGGUUUUUGGAAUUCUCGGGUGCCAA: 1.24
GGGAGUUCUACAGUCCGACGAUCUGUCCUGGUCACUUGUACUGGUUACAGAGCCUCUCAGCGAUGGCUACACCACCCUUCUCACCCUGCCUCCAUCCCCAAAUCUCAAGCAACACAAUCAGCGGGUACUACCUUGGAAUUCUCGGGUGCCAA: 0.562
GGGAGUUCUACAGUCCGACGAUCCACUGUCCACGCACAUGGAGGAAAAGUUACUGCUGAAGACCCACUCGAUGGACGAUCUCAGCCUUGAGCCCCACGAGGAGCUUGCUUGCUGGGCUCAUCCUGUCUCCCCUUGGAAUUCUCGGGUGCCAA: 0.179
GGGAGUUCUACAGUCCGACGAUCUGCUUUUUAAUUAUUAUUAUUAUUUUUUUUACAUUAGGACAUUUUAUGUGACAACUGCCAAAAAAGUAUUUUUAAGAAUUUAAGCGAAAUAAACAGUUACUCUUUGGUAAUGGAAUUCUCGGGUGCCAA: 0.523
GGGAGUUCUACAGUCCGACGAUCGCAGGUGCCGAGUGUCAGAUAGCAUCGGUCCAGAGCUCGUCAGAGGCCCCUGACAGUGGAAACAGAAGAUGCUAAGCUGUCAUAGGUGGAGCAGGAUCCUAAGGACGCACUGGAAUUCUCGGGUGCCAA: 0.308

Set 2
Target: Centromere-binding protein 1, full length, N-terminal tag (CBF1, Saccharomyces cerevisiae, UniProt P17106, residues 1-351)
Chain of UniProt P17106 (whole entry, looked up): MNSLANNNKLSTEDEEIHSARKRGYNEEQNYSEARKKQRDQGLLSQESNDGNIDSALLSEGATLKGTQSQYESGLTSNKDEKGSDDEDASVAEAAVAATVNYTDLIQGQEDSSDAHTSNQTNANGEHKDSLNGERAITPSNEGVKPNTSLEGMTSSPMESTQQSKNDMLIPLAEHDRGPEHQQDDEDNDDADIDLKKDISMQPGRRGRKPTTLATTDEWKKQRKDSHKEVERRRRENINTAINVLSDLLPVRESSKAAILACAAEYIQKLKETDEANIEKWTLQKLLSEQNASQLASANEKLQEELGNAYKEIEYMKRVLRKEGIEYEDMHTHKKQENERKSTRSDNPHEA
Technique: protein-binding microarray
Form: double-stranded DNA, one strand shown
Medium: in vitro
Tested at: 0.8 µM
Setting: whole 60-bp probe, no competitor
Reading: higher = stronger binding
Endpoint: fluorescence intensity
GAATTGTGGTTAATGCACATGTAAAGTTGTGAATAGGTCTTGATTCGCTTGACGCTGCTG: 642 a.u.
GAATATCTTTTGAAACATCAGAAGTGTCCGTAGTAGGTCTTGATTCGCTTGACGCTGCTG: 559 a.u.
CCTAACTACTATACTCACGTTAGATAGCTTCGTACAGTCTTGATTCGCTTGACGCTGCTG: 544 a.u.
GAATGATTTTCTATATACATGATGTATCGGAAGTAGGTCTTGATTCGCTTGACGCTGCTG: 577 a.u.
TGTACGAAGCTATCACATGTGATTATAGTAGTTAGGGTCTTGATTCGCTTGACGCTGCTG: 3370 a.u.
CCTAACTACTATAATCACCTGATATAGCTTCGTACAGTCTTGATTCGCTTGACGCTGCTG: 2560 a.u.
CTATTTTGCGATGCGATGGTGATGAAAAAAAAATTCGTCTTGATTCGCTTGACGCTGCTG: 568 a.u.
GAAAGCTGTTAGTGCCACATGTTTCTATACAAATAGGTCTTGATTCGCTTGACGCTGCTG: 630 a.u.
GAAATCTGCGCCGTGCACGTTTTTACTTCCCCTTAGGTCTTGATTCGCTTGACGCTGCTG: 667 a.u.
CTAATAAAAGCATATTACGTGGGGTCGTAGTAATTCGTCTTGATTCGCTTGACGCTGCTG: 493 a.u.
CTAATGGTCTATCATCAGGTTCCCTTAACCGCTTTCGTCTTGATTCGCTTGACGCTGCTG: 516 a.u.
CTATATTATATTGGTCATGATTAATATGACCAATTCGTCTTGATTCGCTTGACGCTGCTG: 590 a.u.
TGTACGAAGCTATATCACGCTCTTATAGTAGTTAGGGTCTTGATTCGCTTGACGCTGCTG: 638 a.u.
CCTAACTACTATAAAGGCGTGCCATAGCTTCGTACAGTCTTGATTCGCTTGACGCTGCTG: 513 a.u.
CTATGTTTTTATTTCTACGTGATTTTTTTCTTGTTCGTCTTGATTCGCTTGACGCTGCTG: 654 a.u.
CTATATTATTTTCATCACCAAACTGTTGGAAGTTTCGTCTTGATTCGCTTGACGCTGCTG: 525 a.u.
TGTACGAAGCTATAACATGTGATTATAGTAGTTAGGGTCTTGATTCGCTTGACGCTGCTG: 1890 a.u.
CTAAAGCACAAAAAGCTGACATCAGGAAGAAAATTCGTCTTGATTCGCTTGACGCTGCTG: 547 a.u.
CTATCAGGTAGATCTCAGCACGTGTGCATGCGCTTCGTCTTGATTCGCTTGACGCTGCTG: 6120 a.u.
CTAACATAAGTCGGGAACCTGATGCATCATTCTTTCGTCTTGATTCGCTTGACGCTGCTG: 484 a.u.
TGTACGAAGCTATTCCACGTGATTATAGTAGTTAGGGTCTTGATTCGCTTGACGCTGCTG: 5970 a.u.
GAATTGGTTCTCCATCACGTGATAAACATTTCTTAGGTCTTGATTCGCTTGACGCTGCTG: 35100 a.u.
CTATGCAAGCAATTGCACGCGAGTACTCTGCGTTTCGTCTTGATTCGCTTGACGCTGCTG: 502 a.u.
CCTAACTACTATACAGCTGTTATATAGCTTCGTACAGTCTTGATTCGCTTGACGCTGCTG: 483 a.u.
CCTAACTACTATAGGCGTGTGCAATAGCTTCGTACAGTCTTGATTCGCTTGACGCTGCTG: 511 a.u.

Set 3
Target: Interferon regulatory factor 7, full length, phosphomimetic (IRF7, Homo sapiens, UniProt Q92985, residues 1-503, S101K/S471D/S472D/S475D/S476D/S477D/S483D/S484D/S487D)
Chain of UniProt Q92985 (whole entry, unmodified, looked up): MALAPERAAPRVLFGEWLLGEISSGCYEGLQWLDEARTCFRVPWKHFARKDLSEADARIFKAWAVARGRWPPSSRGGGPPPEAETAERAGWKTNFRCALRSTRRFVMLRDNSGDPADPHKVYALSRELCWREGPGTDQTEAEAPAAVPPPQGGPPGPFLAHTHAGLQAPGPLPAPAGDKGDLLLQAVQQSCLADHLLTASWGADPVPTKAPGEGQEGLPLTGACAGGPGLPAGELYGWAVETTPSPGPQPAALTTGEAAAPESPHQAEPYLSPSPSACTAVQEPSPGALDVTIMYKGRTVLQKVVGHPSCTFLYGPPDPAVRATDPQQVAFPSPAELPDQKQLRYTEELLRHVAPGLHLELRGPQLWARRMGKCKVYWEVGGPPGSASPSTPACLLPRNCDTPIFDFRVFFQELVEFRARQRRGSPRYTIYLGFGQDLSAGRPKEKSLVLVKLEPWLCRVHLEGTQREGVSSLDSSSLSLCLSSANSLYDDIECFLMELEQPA
Technique: protein-binding microarray
Form: double-stranded DNA, one strand shown
Medium: in vitro
Tested at: 250 nM
Setting: 60-bp whole probe
With: salmon DNA 0.4 mg/ml
Reference: random background probes
Reading: higher = stronger binding
Endpoint: log fluorescence
Shared flanks, not repeated: GCCTAGCAC … GTCTTGATTCGCTTGACGCTGCTG
TTAGACATCAGACTGGATTAGTGCTAG: -0.201 z-score
TTAGATTTAAGTTTCGATTAGTGCTAG: 8.51 z-score
TTAGGTTTCGTGTATCGGTTAGTGCTA: 5.59 z-score
TCAAACTTCTCCACTGAAACTGTGCTA: 0.365 z-score
TTCGATTTCGGGACTGGATTAGTGCTA: 0.845 z-score
TTAGGACTGGTCACTGGGTTAGTGCTA: -0.44 z-score
TAGTATATACACTTATGACTGTGCTAG: -0.0308 z-score
GACGGTTTCGACACTGGCGACGTGCTA: 3.75 z-score
GAAGGTCTCGGTCTCGGGACGTGCTAG: 1.04 z-score
GACGGTATCCTTTTCCTGAGGTGCTAG: 0.982 z-score
TTAGGTATCCTACTGCTTTAGTGCTAG: -0.0995 z-score
TTTGCTCTGTGCATAGTTCTGTGCTAG: -0.527 z-score
GACGGTCTCGGTCTCGGGATGTGCTAG: 1.26 z-score
GACGGTCTCCGTTTCCTGACGTGCTAG: 1.99 z-score
GACGATATCGGGGTTCGAGACGTGCTA: -0.171 z-score
GGGAATTTAGAAAATGGAAATGTGCTA: -0.119 z-score
ATGATGTGTCAAAAATTGCAGTGCTAG: -0.448 z-score
TTAGATATCAGTCTCGATTTGTGCTAG: 5.33 z-score
GACGGTATCCTTCTCCTGACGTGCTAG: -0.0331 z-score
TCAAGTTTACCCATCTCACTGTGCTAG: 0.706 z-score
TTAGATATCGGGTACCGATTAGTGCTA: 0.227 z-score
TTAGGTTTCGGGTTTCAGTTAGTGCTA: 11.8 z-score
GACGGACTGGTCTATCGGGACGTGCTA: -0.783 z-score
CACTCTCAGAATCTCTCATGGTGCTAG: 0.391 z-score
GACGAACTCAGTCTCGAGACGTGCTAG: 0.397 z-score

Set 4
Target: Histone acetyltransferase KAT6A, winged helix 2, GST fusion (KAT6A, Homo sapiens, UniProt Q92794, residues 85-181)
Technique: protein binding microarray
Form: double-stranded DNA, one strand shown
Medium: in vitro
Tested at: not given
Setting: 8-mer, flanks averaged, mean of 2 arrays, mostly near background
Reference: not given
Reading: higher = stronger binding
Endpoint: E-score
Residues (chain): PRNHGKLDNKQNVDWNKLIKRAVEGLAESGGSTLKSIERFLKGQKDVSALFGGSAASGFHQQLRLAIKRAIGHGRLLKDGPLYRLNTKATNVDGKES
CCGTTCAC: -0.13
AAAGTCGC: 0.218
GTCGTTGA: -0.0981
AAAAGTCC: -0.0516
AGAAGCAT: 0.201
AATGATGA: 0.0245
ATTTACCA: 0.077
CGTTAGAC: -0.144
AAGGGGCG: -0.0323
ATATAAGC: -0.0553
AAGCCGTA: -0.011
ATAGTATG: 0.0306
AACCTGAG: -0.0636
ATACCCCG: -0.065
ACTCGAAC: -0.163
ATTATAGC: -0.0799
GCAGTCAA: -0.0173
CCTTGCCA: -0.00737
CATATCTA: 0.0815
TCGAAAGA: 0.0906
AGCCGAGA: 0.0398
CTCCGAGC: -0.0759
ATTAGTGA: 0.017
ATAATTCG: -0.0549
AACAGACT: -0.15

A few entries again (set 2):
GAATGATTTTCTATATACATGATGTATCGGAAGTAGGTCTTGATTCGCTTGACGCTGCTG: 577 a.u.
TGTACGAAGCTATCACATGTGATTATAGTAGTTAGGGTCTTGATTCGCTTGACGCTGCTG: 3370 a.u.
CCTAACTACTATAATCACCTGATATAGCTTCGTACAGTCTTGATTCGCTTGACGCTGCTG: 2560 a.u.
CTATTTTGCGATGCGATGGTGATGAAAAAAAAATTCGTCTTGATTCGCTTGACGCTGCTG: 568 a.u.
GAAAGCTGTTAGTGCCACATGTTTCTATACAAATAGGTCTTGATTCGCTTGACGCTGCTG: 630 a.u.
GAAATCTGCGCCGTGCACGTTTTTACTTCCCCTTAGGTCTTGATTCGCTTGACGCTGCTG: 667 a.u.
CTAATAAAAGCATATTACGTGGGGTCGTAGTAATTCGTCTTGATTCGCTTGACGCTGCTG: 493 a.u.
